Assay results of several laboratories.
Parts stem from different laboratories: compare values within a part only.

Sample 1
Target: Sal-like protein 4, full length isoform A (SALL4, Homo sapiens, UniProt Q9UJQ4, residues 1-1053)
Chain of UniProt Q9UJQ4 (whole entry, looked up): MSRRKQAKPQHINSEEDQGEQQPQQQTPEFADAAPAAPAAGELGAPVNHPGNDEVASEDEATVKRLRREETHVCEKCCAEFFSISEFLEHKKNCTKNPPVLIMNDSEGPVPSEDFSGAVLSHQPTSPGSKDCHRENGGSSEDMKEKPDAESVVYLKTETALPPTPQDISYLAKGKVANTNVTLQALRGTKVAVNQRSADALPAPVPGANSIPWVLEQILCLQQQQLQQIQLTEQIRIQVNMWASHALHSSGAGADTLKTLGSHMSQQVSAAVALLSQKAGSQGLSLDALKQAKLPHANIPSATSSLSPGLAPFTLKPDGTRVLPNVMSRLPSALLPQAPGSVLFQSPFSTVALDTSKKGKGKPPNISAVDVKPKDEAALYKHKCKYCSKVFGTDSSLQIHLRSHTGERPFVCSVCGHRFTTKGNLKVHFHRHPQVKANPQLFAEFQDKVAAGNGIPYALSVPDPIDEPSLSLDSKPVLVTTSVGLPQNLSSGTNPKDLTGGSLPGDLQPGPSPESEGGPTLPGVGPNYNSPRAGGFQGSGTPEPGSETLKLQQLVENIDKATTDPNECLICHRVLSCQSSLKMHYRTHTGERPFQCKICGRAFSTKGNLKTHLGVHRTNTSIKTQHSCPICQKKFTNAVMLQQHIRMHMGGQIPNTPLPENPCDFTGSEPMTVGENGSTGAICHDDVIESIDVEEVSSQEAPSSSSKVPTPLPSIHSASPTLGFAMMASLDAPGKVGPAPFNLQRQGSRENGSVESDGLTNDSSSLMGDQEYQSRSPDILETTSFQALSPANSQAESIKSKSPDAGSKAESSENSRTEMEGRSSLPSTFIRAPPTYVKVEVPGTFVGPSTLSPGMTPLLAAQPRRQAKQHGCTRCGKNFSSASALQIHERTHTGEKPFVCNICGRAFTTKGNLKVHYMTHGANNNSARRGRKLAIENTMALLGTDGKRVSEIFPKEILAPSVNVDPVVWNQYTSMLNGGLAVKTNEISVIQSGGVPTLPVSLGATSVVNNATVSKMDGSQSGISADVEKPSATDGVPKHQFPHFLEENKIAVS
Technique: universal PBM
Form: double-stranded DNA, one strand shown
Matrix: in vitro
Tested at: 600 nM
Notes: 8-mer, flanks averaged, mean of replicates
Reading: higher = stronger binding
| Strand | E-score |
| --- | --- |
| CAAGTACA | 0.0539 |
| ACCAATGC | -0.111 |
| ACTTTCAA | 0.198 |
| CTTGGTGC | -0.0265 |
| CATTTCCA | 0.233 |
| CTCCGGCC | -0.338 |
| CCCTGGCG | -0.38 |
| CCCGGGCA | -0.309 |
| ACAGCCCT | -0.289 |
| GCGAGAGC | -0.246 |
| GCCTGACC | -0.175 |
| ACTCCTCT | -0.0737 |
| ACCTTCGA | 0.0091 |
| AAATACTC | 0.238 |
| AACGGGAT | -0.0948 |
| ATTTGGTG | 0.193 |
| AACCGCGA | -0.0832 |
| ACTTACGA | 0.153 |
| CCAGTCTA | -0.231 |
| CCGGCTTA | -0.219 |
| TGTAGTAA | 0.246 |
| CCAAAAGG | -0.0621 |
| CTCACCAA | 0.152 |

Sample 2
Target: Interferon regulatory factor 5, full length, phosphomimetic (IRF5, Homo sapiens, UniProt Q13568-2, residues 1-514, S451D/S453D/S456D/S462D)
Technique: protein-binding microarray
Form: double-stranded DNA, one strand shown
Matrix: in vitro
Tested at: 940 nM top
Notes: 60-bp whole probe
Added: salmon DNA 0.4 mg/ml
Baseline: random background probes
Reading: higher = stronger binding
Shared flanks, not repeated: GCCTAGCAC … GTCTTGATTCGCTTGACGCTGCTG
| Strand | fitted relative affinity |
| --- | --- |
| TTAGGTATCGGTCTCAGTTAGTGCTAG | 8.97 z-score |
| TTAGGTTTCCTTTTCCTTTGGTGCTAG | 1.71 z-score |
| TTAGGACTGGGGACTTGGTTAGTGCTA | -0.225 z-score |
| GACGAAATGGGGTATCGAGACGTGCTA | 1.03 z-score |
| TTAGTTATCCTTATCCTTTAGTGCTAG | 0.917 z-score |
| CTAGATATCAGACTGGATTAGTGCTAG | -0.455 z-score |
| GACGATATCAGTCTCGAGACGTGCTAG | 1.24 z-score |
| AACGGACTGCTACTGCTGACGTGCTAG | -0.54 z-score |
| GACGAACTGGGGACTGGCGACGTGCTA | -0.451 z-score |
| GACGATACCAGTATCGAGACGTGCTAG | 3.2 z-score |
| GAAGATCTCAGTATCGAGACGTGCTAG | 1.58 z-score |
| TCTACAATGGCTTTGCCTTTGTGCTAG | -0.376 z-score |
| TCATTCCTGATCTCTGGTCTTGTGCTA | 0.286 z-score |
| TTAGGTTTCGGACTGGGTTAGTGCTAG | 7.79 z-score |

Sample 3
Target: Histone acetyltransferase KAT6A, both winged helices, GST fusion (KAT6A, Homo sapiens, UniProt Q92794, residues 1-181)
Technique: protein binding microarray
Form: double-stranded DNA, one strand shown
Matrix: in vitro
Tested at: not given
Notes: 8-mer, flanks averaged, mean of 2 arrays, mostly near background
Baseline: not given
Reading: higher = stronger binding
Construct (chain): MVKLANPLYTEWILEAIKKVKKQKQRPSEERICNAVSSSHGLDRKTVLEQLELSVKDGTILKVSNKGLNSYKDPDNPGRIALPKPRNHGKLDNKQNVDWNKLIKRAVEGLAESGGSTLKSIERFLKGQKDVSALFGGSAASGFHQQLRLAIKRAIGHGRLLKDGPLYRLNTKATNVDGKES
| Strand | E-score |
| --- | --- |
| CACATACA | -0.0961 |
| GTTCGATA | 0.041 |
| CGAAAGCG | 0.206 |
| GTGCACAA | -0.2 |
| GTGCTTAA | -0.0858 |
| AGAGACTC | -0.347 |
| AGCAGGTG | 0.00439 |
| CCAGAGAG | -0.28 |
| GTTGCCGA | 0.159 |
| ATCCTTCA | -0.148 |
| AAATAAGG | -0.219 |
| GAACCTCA | 0.0127 |
| ATAGGACG | 0.0801 |
| GAATGACA | -0.0877 |
| AGACTTTA | -0.0876 |
| CTTCCTAA | -0.224 |
| TCTACCCA | -0.105 |
| ACAAATGG | -0.0916 |
| ACGACCGT | 0.145 |
| GAGCACGC | 0.127 |
| CACAAGGG | -0.00402 |
| ACCATAGT | -0.126 |
| AGACGCCT | -0.00235 |
| CATTGGCC | -0.0799 |
| GGTAGCTA | 0.0108 |

Sample 4
Target: RING finger protein unkempt homolog, zinc fingers 1-6, GST-SBP tag (UNK, Homo sapiens, UniProt Q9C0B0, residues 30-357)
Technique: RNA Bind-n-Seq
Form: RNA
Matrix: in vitro
Tested at: not given
Notes: RNA with constant flanks, human and mouse sites, ends assumed
Baseline: input RNA pool
Reading: higher = stronger binding
Shared flanks, not repeated: GGGAGUUCUACAGUCCGACGAUC … CAACAGAGGAUUGAGCAUCA
Target sequence (chain): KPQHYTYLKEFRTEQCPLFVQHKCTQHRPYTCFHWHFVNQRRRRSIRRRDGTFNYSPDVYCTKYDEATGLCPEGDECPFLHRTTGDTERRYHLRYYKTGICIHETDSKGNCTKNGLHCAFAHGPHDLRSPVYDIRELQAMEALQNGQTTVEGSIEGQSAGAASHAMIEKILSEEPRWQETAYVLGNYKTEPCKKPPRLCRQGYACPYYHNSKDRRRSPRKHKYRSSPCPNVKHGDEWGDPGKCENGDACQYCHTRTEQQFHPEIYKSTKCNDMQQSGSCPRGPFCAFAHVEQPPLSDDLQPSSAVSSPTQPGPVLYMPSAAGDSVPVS
| Strand | bound/input enrichment |
| --- | --- |
| GAGGCAGCUGCUCAGCUCCUGGAAUCUUCAGUUCAAAACCUUUUUAAGCAGGUAGAUUUAAUAGACCUAGUACGCUGGAAGAUUUUAAAAGAUAAACAUAUCCCUCAAUUUUUACAAGAA | 1.1 ratio |
| UGUUACUCUUAUUUAACAGGACCUCUGUUGUAUUGAUUUCUUCUGUAUCUUCCUUUUGAAUCUUGUAAGACAGAAGUUUAAGACCACGAGUUGGAAGACAAGUCACAUAAUCCAAACACA | 0.145 ratio |
| AUGGGCCGCCACUGUGGAUACCUGGCCCUUGUCACCUCUCUGUCCUGUGGGGCCGACUGGGUUUUUAUUCCUGAAUGUCCACCAGAUGACGACUGGGAGGAACACCUUUGUCGCCGACUC | 0.0734 ratio |
| AAGCUGCUGUGCGGCCUGCUGGCCGAGCGCCUGCGCAUCAGCCCGGACAGGGUCUACAUCAACUAUUACGACAUGAACGCGGCCAAUGUGGGCUGGAACAACUCCACCUUCGCCUAAGAG | 0.126 ratio |
| CCAGACUUUCUUUUCCCUGAAGAAGCUCUGAAGGUUUCAGCUGUUUCUGUAUUGGCUGCCCAGAAGACUGGGACACCAACAGUGUCCUCUAAUUCUCACUCACAUAGCGAGAAAUCUAGU | 0.168 ratio |
| GAUGAUAAUCACACAAACAAGUCACUGUUACAUGACCAGCCUUGGGAUUCUUUUCCUGAUUAAUAUUCUCCCUGGAACCACUGGUCAAGGGGAAUCAAGACGACAAGAACCCGGGGACUU | 0.154 ratio |
| AGGGUUGUUUCAUCUCAAAGACCAUUUCAAGAAUCUUCUGACAAUGAAGGUAGGCGGACAACGAGGAGAUUGCUGUCACGCAUAGCUUCUAGCAUGUCAUCUACUUUUUUUUCACGAAGA | 0.126 ratio |
| GACUGUGGAAAAGCCUUCAGUCAGAGUUCCAGCCUUAUUUACCAUCAGAGAAUCCAUAAAGGAGAGAAGCCCUACGAAUGCCUCCAAUGCGGAAAAGCCUUCAGUAUGAGCACACAGCUU | 0.201 ratio |
| UUUUAUGCACCCACCGCAGCUGUUGAAAGCAUGGUGGAGCACUUGUCUCGAGAUAUAGAUGUGAUUAGAGGGAAUAUUGUCAAACACCCUCUGACCCAGGAACUAAAAGAAUGUGAAGGG | 0.246 ratio |
| AAUAUCAUGCAGGUUUUUAUAUACUGCCUGGAACAACUGAGCACCAAGCCUGAUGCAGACAUAGAUACUACUCAUCUUUCUGUUGAUGUUUCUUCUCCUGAUUUGUUUGGAAGCAUCCAU | 0.261 ratio |
| AGGCCACUUUCAGCUGUGAAGACAGAGGCAUCCCCUGAGAGCAUGUUGUCUCCAUCACAUGGCUCAAAUCUUAUUGAAGAUCCUUUAGAGGCAGAGACUCAACACAAGUUUGAAAUGUCA | 0.14 ratio |

Sample 5
Target: Ras GTPase-activating protein-binding protein 1, RRM domain (G3BP1, Homo sapiens, UniProt Q13283)
Chain of UniProt Q13283 (whole entry, looked up): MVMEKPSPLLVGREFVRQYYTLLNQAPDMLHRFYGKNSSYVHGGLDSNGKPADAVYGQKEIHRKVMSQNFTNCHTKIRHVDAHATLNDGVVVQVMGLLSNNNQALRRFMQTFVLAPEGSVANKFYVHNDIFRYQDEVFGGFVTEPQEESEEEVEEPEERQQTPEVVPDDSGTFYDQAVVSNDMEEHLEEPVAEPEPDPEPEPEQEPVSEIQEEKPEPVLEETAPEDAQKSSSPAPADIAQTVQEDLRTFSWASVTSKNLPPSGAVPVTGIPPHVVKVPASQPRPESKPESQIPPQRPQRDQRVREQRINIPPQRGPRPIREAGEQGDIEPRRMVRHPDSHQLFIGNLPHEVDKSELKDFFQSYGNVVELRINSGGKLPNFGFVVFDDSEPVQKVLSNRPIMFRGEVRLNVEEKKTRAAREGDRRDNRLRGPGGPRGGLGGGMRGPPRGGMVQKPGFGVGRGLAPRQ
Technique: RNA Bind-n-Seq
Form: RNA
Matrix: in vitro
Tested at: 1 µM
Notes: whole 134-nt RNA, ends assumed
Added: 150 mM KCl
Baseline: input library
Reading: higher = stronger binding
Shared flanks, not repeated: GGGAGUUCUACAGUCCGACGAUC … UGGAAUUCUCGGGUGUCAAGG
| Strand | log2 enrichment |
| --- | --- |
| CUCAAGUCCUGUGCUACACAUCGUAUGUACCGAAUCGGAAAAAAAGGAGGUGGAAAGUAUUAUGUUACGCCGUUCGGAUCUGCACUUCCA | -0.196 |
| CAAGUCCUGUGCUACACAUCGUAUGUACCGAAUCGGCCCCGGGCCCCGGCCCCGGGAAAGUAUUAUGUUACGCCGUUCGGAUCUGCACUU | -0.8 |
| GUCCUGUGCUACACAUCGUAUGUACCGAAUCAAAUUUUUAAACCCCCAAACCCCCAAAAAAGUAUUAUGUUACGCCGUUCGGAUCUGCAC | -0.759 |
| UCAAGUCCUGUGCUACACAUCGUAUGUACCGAAUCGGGAAAGGGUGGGUUUGGGAAAGUAUUAUGUUACGCCGUUCGGAUCUGCACUUCC | 0.839 |
| UGGCCUGCACAUUCAGCUGCAUGAUGAAGUUCACUGUCAAGGACUGUGAUCCCACCACUGGGGAGACUGAUGACGAAGGCUAUGAGGAUG | -0.269 |
| UCCUGUGCUACACAUCGUAUGUACCGAAUCGGGGUUUUUUGGGUUUUUUGGUUUUUUGGGAAAGUAUUAUGUUACGCCGUUCGGAUCUGC | -0.158 |
| CUGUGCUACACAUCGUAUGUACCGAAUCGGGAAAAAAGGGGAAAAAAGGGGAAAAAAGGGGAAAGUAUUAUGUUACGCCGUUCGGAUCUG | 0.138 |
| UGGCCCUGGUGGCAUGCGGGGAGGAAGAGGUGGCCUCAUGGAUCGUGGUGGUCCCGGUGGAAAGUUCAGAGGUGGCCGUGGUGGAGACAG | 0.654 |
| CUGUGCUACACAUCGUAUGUACCGAAUCGGGGAAAAAGGGGUUUUUGGGGUUUUUUUGGGGAAAGUAUUAUGUUACGCCGUUCGGAUCUG | 1.18 |
| GUCCUGUGCUACACAUCGUAUGUACCGAAUCGGAAAAAGGAAAAAAAGGAAAAAAAGGAAAGUAUUAUGUUACGCCGUUCGGAUCUGCAC | -0.0457 |

Repeated from above (sample 3):
| Strand | E-score |
| --- | --- |
| AAATAAGG | -0.219 |
| GAACCTCA | 0.0127 |
| ATAGGACG | 0.0801 |
| GAATGACA | -0.0877 |
| AGACTTTA | -0.0876 |
| CTTCCTAA | -0.224 |
| TCTACCCA | -0.105 |
| ACAAATGG | -0.0916 |
| ACGACCGT | 0.145 |
| GAGCACGC | 0.127 |
| CACAAGGG | -0.00402 |
| ACCATAGT | -0.126 |
| AGACGCCT | -0.00235 |
